{"data": "Assay results of several laboratories", "note": "Lines come from different studies, so protocols differ.", "UniProt Q07002, sequence (whole entry, looked up)": "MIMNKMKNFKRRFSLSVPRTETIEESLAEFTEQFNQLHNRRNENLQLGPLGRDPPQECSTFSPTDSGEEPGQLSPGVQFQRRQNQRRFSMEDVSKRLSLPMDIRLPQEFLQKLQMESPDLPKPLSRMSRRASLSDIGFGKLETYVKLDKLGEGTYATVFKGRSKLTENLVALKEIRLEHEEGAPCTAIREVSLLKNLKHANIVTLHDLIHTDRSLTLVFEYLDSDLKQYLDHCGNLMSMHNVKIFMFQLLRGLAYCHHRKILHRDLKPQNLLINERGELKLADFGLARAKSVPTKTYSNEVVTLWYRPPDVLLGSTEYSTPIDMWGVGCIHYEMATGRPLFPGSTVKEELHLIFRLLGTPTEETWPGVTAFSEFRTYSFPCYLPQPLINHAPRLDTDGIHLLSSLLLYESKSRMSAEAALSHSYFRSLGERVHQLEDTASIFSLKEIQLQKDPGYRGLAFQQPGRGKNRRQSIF"}
{"SMILES": "CC(C)(N)CNC(=O)O[C@@H]1CCC[C@]2(C1)OOC1(O2)C2CC3CC(C2)CC1C3 (stereo partly shown)", "system": "male CD-1 mouse, plasma", "conditions": "oral, 10 mg/kg", "endpoint": "AUC(0-inf)", "value": "604 ng·h/mL"}
{"SMILES": "CC(C)CC(=O)OC[C@H]1O[C@@](C#N)(c2ccc3c(N)ncnn23)[C@H](O)[C@@H]1O", "system": "rat, plasma", "endpoint": "fraction unbound", "value": 0.0894}
{"SMILES": "CN(C)C1(CNC(=O)c2ccc3c(c2)CCN3C(=O)c2ccccc2)CCOCC1", "system": "male C57BL/6 mouse, brain", "conditions": "intraperitoneal, 50 mg/kg, 30 min, unbound", "endpoint": "concentration", "value": "597 nM"}
{"SMILES": "CCC[C@@](N)(CO)CCc1ccc(OCCCCCC(C)C)cc1", "system": "mouse, plasma", "conditions": "oral, 50 mg/kg", "endpoint": "Cmax", "value": "1370 nM"}
{"SMILES": "CC(C)C[C@H](NC(=O)[C@H](Cc1ccccc1)NC(=O)[C@H](Cc1ccccc1)NC(=O)Cc1ccc(-c2ccccc2)cc1)C(=O)N[C@@H](CCCCN)C(=O)N[C@@H](CCCNC(=N)N)C(=O)N[C@H](C(=O)N[C@@H](Cc1c[nH]c2ccccc12)C(=O)N[C@@H](CCCCN)C(=O)N[C@@H](CCCNC(=N)N)C(=O)O)C(C)C", "assay": "metabolic stability", "system": "dog, liver microsomes", "conditions": "15 min", "endpoint": "compound remaining", "value": "86.9%"}
{"SMILES": "Nc1nc(-c2ccccc2)nc2[nH]nc(Nc3ccc(C(F)(F)F)cc3)c12", "system": "mouse, plasma", "conditions": "oral, 100 mg/kg, 5 h", "endpoint": "concentration", "value": "912 ng/mL"}
{"SMILES": "CC[C@H](C)CCCCC(=O)N[C@@H](CCN)C(=O)N[C@H](C(=O)N[C@@H](CCN)C(=O)N[C@H]1CCNC(=O)[C@H]([C@@H](C)O)NC(=O)[C@H](CCN)NC(=O)[C@H](CCN)NC(=O)[C@H](CC(C)C)NC(=O)[C@@H](CC(C)C)NC(=O)[C@H](CCN)NC1=O)[C@@H](C)O", "system": "male Sprague-Dawley rat, plasma", "conditions": "subcutaneous, 10 mg/kg", "endpoint": "AUC(0-inf)", "value": "22500 ng·h/mL"}
{"SMILES": "O=C(Nc1cccnn1)N1CCN([C@@H]2CCOc3cc(C(F)(F)F)ccc32)CC1", "system": "male Sprague-Dawley rat, plasma", "conditions": "oral, 1 mg/kg, 4 h", "endpoint": "concentration", "value": "100 ng/mL"}
{"SMILES": "C=C(C)[C@@H]1CC[C@]2(NCCN3CCS(=O)(=O)CC3)CC[C@]3(C)[C@H](CC[C@@H]4[C@@]5(C)CC=C(C6=CC[C@@](COc7ncccc7C#N)(C(=O)O)CC6)C(C)(C)[C@@H]5CC[C@]43C)[C@@H]12", "system": "human, plasma", "conditions": "oral, 100 mg, fed", "endpoint": "AUC(0-t)", "value": "6460 ng·h/mL"}
{"SMILES": "[2H]c1c([2H])c([C@]2([2H])CCCN2C(=O)C(C)(C)Oc2ccc3cn[nH]c3c2)c([2H])c([2H])c1C([2H])([2H])[2H]", "tested on": "CDK18 (Homo sapiens, UniProt Q07002)", "assay": "binding, competition with immobilised ligand", "conditions": "1 µM", "endpoint": "remaining binding", "value": "94%"}
{"SMILES": "N=C(N)NCCC[C@@H](NC(=O)[C@@H](N)Cc1ccccc1)C(=O)N[C@@H](Cc1ccccc1)C(=O)N[C@@H](CCCCN)C(N)=O", "system": "human, plasma", "conditions": "subcutaneous, 25 mg, multiple doses, once daily, patients", "endpoint": "AUC(0-t)", "value": "5220 ng·h/mL"}
{"SMILES": "CC(=O)c1c(C)c2cnc(Nc3ccc(C4CCN(CCS(C)(=O)=O)CC4)cn3)nc2n(C2CCCC2)c1=O", "assay": "general toxicity", "system": "beagle dog", "conditions": "oral, multiple doses", "endpoint": "NOAEL", "value": "2 mg/kg/day"}
{"SMILES": "[18FH]", "system": "mouse, blood", "conditions": "intravenous, 1 h", "endpoint": "tracer uptake", "value": "0.3 %ID/g"}
